# Results gathered from unrelated publications.
# Each numbered part is a random draw from the data of one study; scales do not carry over between parts. Positions count from the first letter of the parent shown.
# Chain of UniProt Q16763 (whole entry, looked up): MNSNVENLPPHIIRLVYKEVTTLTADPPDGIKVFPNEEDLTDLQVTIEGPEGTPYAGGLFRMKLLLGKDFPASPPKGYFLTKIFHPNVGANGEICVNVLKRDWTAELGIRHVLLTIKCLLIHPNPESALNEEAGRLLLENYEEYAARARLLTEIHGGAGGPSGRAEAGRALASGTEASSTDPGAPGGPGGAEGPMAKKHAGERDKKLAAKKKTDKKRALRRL
# Chain of UniProt P62837 (whole entry, looked up): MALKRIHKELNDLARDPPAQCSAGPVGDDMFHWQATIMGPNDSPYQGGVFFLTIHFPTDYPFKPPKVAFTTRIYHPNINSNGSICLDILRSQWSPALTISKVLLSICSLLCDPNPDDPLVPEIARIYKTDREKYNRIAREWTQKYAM
# Chain of UniProt Q7Z7E8 (whole entry, looked up): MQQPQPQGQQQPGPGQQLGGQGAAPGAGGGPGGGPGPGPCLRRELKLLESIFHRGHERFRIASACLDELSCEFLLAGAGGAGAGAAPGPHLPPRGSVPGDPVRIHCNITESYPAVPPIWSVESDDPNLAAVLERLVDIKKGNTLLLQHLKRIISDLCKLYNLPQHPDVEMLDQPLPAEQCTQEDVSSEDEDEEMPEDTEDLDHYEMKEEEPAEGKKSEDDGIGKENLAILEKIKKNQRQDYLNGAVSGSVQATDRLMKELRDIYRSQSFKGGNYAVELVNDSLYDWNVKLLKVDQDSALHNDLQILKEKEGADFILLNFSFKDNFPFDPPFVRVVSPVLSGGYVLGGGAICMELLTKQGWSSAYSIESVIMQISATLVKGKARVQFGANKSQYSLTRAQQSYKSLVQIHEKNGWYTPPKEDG
# Chain of UniProt Q9C0C9 (whole entry, looked up): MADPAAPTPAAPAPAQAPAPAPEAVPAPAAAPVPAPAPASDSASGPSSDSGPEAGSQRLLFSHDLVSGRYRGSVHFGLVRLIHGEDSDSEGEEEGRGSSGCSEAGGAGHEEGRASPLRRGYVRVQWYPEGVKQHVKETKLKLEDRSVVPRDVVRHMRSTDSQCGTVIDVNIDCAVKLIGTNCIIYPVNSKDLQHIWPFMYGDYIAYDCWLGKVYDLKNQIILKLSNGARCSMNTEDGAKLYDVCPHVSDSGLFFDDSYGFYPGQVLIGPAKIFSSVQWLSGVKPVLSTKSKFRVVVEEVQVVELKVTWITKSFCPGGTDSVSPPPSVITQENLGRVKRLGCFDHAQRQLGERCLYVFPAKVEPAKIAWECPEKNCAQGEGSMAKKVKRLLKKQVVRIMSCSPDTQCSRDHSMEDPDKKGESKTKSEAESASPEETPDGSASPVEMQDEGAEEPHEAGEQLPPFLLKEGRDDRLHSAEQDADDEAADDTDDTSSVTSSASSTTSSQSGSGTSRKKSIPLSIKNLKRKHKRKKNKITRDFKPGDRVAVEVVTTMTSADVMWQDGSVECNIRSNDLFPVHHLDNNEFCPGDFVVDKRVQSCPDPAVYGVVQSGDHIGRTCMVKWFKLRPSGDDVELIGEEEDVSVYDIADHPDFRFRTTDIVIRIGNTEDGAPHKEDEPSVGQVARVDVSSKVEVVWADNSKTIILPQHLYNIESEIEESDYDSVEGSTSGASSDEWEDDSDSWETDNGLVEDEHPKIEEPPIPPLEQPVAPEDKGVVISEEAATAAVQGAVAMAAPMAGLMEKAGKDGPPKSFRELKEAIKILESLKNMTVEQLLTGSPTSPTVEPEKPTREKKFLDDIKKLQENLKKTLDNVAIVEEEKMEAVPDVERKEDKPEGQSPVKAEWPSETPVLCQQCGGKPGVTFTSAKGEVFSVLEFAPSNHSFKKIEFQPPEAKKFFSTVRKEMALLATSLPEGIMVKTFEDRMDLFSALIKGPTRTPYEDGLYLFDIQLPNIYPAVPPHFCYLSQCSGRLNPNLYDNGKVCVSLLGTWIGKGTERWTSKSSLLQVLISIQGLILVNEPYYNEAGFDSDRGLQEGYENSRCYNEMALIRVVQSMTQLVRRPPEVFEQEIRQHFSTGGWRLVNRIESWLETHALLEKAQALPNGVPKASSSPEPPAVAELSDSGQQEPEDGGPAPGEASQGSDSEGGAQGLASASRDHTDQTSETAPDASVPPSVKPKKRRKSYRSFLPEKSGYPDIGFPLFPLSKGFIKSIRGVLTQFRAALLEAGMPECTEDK
# Chain of UniProt Q8N2K1 (whole entry, looked up): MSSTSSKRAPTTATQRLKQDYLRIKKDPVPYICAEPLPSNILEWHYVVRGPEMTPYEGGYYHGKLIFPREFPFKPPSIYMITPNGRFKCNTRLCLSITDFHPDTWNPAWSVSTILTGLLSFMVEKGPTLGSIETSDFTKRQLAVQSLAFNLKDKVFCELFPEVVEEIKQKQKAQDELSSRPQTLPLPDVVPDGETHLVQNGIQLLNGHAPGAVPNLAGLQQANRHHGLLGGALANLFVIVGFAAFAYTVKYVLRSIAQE
# Chain of UniProt P63146 (whole entry, looked up): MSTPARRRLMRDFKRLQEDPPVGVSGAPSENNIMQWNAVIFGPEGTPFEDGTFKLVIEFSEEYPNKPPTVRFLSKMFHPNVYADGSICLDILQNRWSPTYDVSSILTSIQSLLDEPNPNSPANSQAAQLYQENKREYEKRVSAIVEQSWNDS

# Series 1 — method: aptamer microarray, sandwich; form: DNA with 2'F-ANA; medium: in vitro; concentration: 200 nM; with: Cy3 exosite-II aptamer, 400 nM; reading: higher = stronger binding; sequence: GGTTGGTGTGGTTGG
# Target: Prothrombin, mature alpha-thrombin (F2, Homo sapiens, UniProt P00734)
# Setting: whole 15-mer aptamer, many near background
Modification,mean fluorescence intensity [a.u.]
2'F-ANA at 4 6 7 9 12,534
2'F-ANA at 1 2 3 4 5 6 7 10 11 12 13,49.5
2'F-ANA at 1 2 5 7 12 15,127
2'F-ANA at 2 3 4 5 7 8 10 12 15,55.8
2'F-ANA at 1 2 4 6 8 9 10,50.3
2'F-ANA at 1 3 4 6 7 9 10 13,56.9
2'F-ANA at 2 3 4 8 9 11,584
2'F-ANA at 3 5 14 15,54.1

# Series 2 — Molecule: B1 (TRIM62 RING domain); method: yeast two-hybrid; medium: yeast; setting: mostly zero background; relative to: not given; reading: higher = stronger interaction
# B1: TRIM62 RING domain (UniProt Q9BVG3); chain MACSLKDELLCSICLSIYQDPVSLGCEHYFCRRCITEHWVRQEAQGARDCPECRRTFAEPALAP
target,lacZ reporter activity
UBE2J2 UBC core domain (UniProt Q8N2K1),0
BIRC6 UBC core domain (UniProt Q9NR09),0
UBE2B UBC core domain (UniProt P63146),0
UBE2Q1 UBC core domain (UniProt Q7Z7E8),0
UBE2S UBC core domain (UniProt Q16763),0
UBE2I UBC core domain (UniProt P63279),0
UBE2D2 UBC core domain (UniProt P62837),0
UBE2O UBC core domain (UniProt Q9C0C9),0

# Series 3 — method: protein-binding microarray; form: hairpin DNA; medium: in vitro; concentration: not given; relative to: not given; reading: higher = stronger binding
# Target: Cyclic AMP-dependent transcription factor ATF-1, full length (ATF1, Homo sapiens, UniProt P18846, residues 1-271)
# Setting: whole hairpin DNA, median over replicate spots
# Construct (chain): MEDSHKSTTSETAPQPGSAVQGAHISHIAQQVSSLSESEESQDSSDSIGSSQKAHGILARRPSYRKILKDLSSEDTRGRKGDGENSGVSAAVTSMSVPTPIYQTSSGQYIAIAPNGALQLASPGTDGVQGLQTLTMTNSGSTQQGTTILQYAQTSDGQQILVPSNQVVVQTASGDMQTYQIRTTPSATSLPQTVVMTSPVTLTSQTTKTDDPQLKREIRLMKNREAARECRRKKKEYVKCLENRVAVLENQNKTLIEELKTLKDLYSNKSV
Sequence,median fluorescence [a.u.]
GAGGCCGGATGACGTTAGCCTCCTGGCTAACGTCATCCGGCCTCACACTC,7670
GAGGCCCGATGACGTCAGCCTCCTGGCTGACGTCATCGGGCCTCACACTC (5mC at 7),16700
GAGGCCGGATGACGTCAGCCTCCTGGCTGACGTCATCCGGCCTCACACTC (5mC at 38),15800
GAGGCCGCATGACGTCAGCCTCCTGGCTGACGTCATGCGGCCTCACACTC (5mC at 8),13300
GAGGCCGGATGACGCGAGCCTCCTGGCTCGCGTCATCCGGCCTCACACTC (5mC at 29),6290
GAGGCCGGATGGCGTCAGCCTCCTGGCTGACGCCATCCGGCCTCACACTC,4150
GAGGCCGGCTGACGGCAGCCTCCTGGCTGCCGTCAGCCGGCCTCACACTC (5mC at 30),3910
GAGGCCGACGACGTCCGGCCTCCTGGCCGGACGTCGTCGGCCTCACACTC (5mC at 9 15 16 35),3320

# Other studies, line by line — parent: viral docking peptide; KGVKRKLFAEDSS
Variant,target,test,test system,setting,scale,quantity,result
KGVKRKLFAEASS [D11A],"CCNE2, cyclin fold, Cln2 fusion (human)","yeast growth competition, sequencing",yeast,strong parent motif,"relative to: not given, higher = stronger binding",normalised enrichment score,6.3

# A few entries again (series 1):
Modification,mean fluorescence intensity [a.u.]
2'F-ANA at 1 3 4 6 7 9 10 13,56.9
2'F-ANA at 2 3 4 5 7 8 10 12 15,55.8
2'F-ANA at 1 2 4 6 8 9 10,50.3
2'F-ANA at 4 6 7 9 12,534
